Results of several laboratories.
Lines come from different studies, so protocols differ. ± marks the error that the study gave.

| Compound | organism | test | test system | setting | EC50 |
| --- | --- | --- | --- | --- | --- |
| CCCCCCCCC1=C(CCCCCCCC(=O)OC)C1 | Toxoplasma gondii | parasite-induced cytopathic effect | Vero, RH | 24 h | 306000 ± 18800 nM |
| CC(C)C[C@H](NC(=O)OCc1cccc(Cl)c1)C(=O)N[C@H](C=O)C[C@H]1CCNC1=O | human rhinovirus 51 | viral replication | WI-38 | 37 °C | 400 ± 140 nM |
| Cc1ccc(NC(=O)N2CCCN3CCC(c4ccc(C#Cc5cccnc5)cc4)C3C2)cc1 (centres unmarked) | Toxoplasma gondii |  | HFF, RH (type I) |  | 520 nM |
| COC(=O)/C=C/c1ccc(OCCNS(=O)(=O)c2ccccc2)c(OC)c1 | tobacco mosaic virus | inactivation activity, half-leaf method |  |  | 198 ± 8.3 µg/mL |
| O=c1ccn(CCCCCOc2ccc(Br)cc2)c(=O)n1Cc1ccccc1 | human betaherpesvirus 5 | plaque formation | HEL, Davis |  | 15300 nM |
| COc1ccc(NC(=O)N2CCCN3CCC(c4ccc(C#Cc5ccccc5)cc4)C3C2)cc1 (centres unmarked) | Toxoplasma gondii |  | HFF, RH (type I) |  | 270 nM |
| COC(=O)/C=C/c1ccc(OCCNS(=O)(=O)c2ccccc2F)c(OC)c1 | tobacco mosaic virus | inactivation activity, half-leaf method |  |  | 266 ± 8.7 µg/mL |
| Cc1ccc(NC(=O)N2CCCN3CCC(c4ccc(C#CC5(O)CCCCC5)cc4)C3C2)cc1 (centres unmarked) | Toxoplasma gondii |  | HFF, RH (type I) |  | 250 nM |
| COC(=O)/C=C/c1ccc(OCCNS(=O)(=O)c2ccc(OC)cc2)c(OC)c1 | tobacco mosaic virus | inactivation activity, half-leaf method |  |  | 175 ± 11.6 µg/mL |
| O=C[C@H](C[C@H]1CCNC1=O)NC(=O)[C@H](CC1CCCCC1)NC(=O)OCc1ccccc1 | human rhinovirus 51 | viral replication | WI-38 | 37 °C | 140 ± 80 nM |
| CCCCOC(=O)/C=C/c1ccc(OCCNS(=O)(=O)c2c(F)cccc2F)c(OC)c1 | tobacco mosaic virus | inactivation activity, half-leaf method |  |  | 640.2 ± 5.9 µg/mL |
| O=C(N[C@@H](CC1CCCCC1)C(=O)N[C@@H](C[C@H]1CCNC1=O)C(=O)C(=O)NC1CC1)OCc1ccccc1 | Enterovirus D68 | viral replication | WI-38 | 37 °C | 40 ± 10 nM |
| O=c1ccn(CCCCCOc2ccc(Br)cc2)c(=O)n1Cc1ccc2ccccc2c1 | human betaherpesvirus 5 | plaque formation | HEL, Davis |  | > 4000 nM |
| O=C(N[C@@H](Cc1ccccc1)C(=O)N[C@@H](C[C@H]1CCNC1=O)C(=O)C(=O)NC1CC1)OCc1ccccc1 | human rhinovirus 1B | viral replication | WI-38 | 37 °C | 190 ± 160 nM |
| CC(=O)N[C@@H]1[C@@H](OC(C)=O)[C@H](OC(C)=O)[C@@H](COC(C)=O)O[C@H]1[Se]Cc1ccc([N+](=O)[O-])cc1 | Trypanosoma brucei brucei | viability | bloodstream form | 24 h | 7690 ± 630 nM |
| O=C[C@H](C[C@H]1CCNC1=O)NC(=O)[C@H](CC1CCCCC1)NC(=O)OCc1cccc(Cl)c1 | human rhinovirus 1B | viral replication | WI-38 | 37 °C | 700 ± 140 nM |
| CCCCCCCCC1=C(C(CCCCCCC(=O)OC)OC)C1 (centres unmarked) | Toxoplasma gondii | parasite-induced cytopathic effect | Vero, RH | 24 h | 248000 ± 17900 nM |
